Measured values from different studies.
A part holds a random share of what one study measured. Values joined by “and” are separate records of one study, mostly repeats; a detail may differ.

Study 1 — method: RNA Bind-n-Seq; form: RNA; matrix: in vitro; concentration: 1 µM; notes: whole 134-nt RNA, ends assumed; together with: 150 mM KCl; relative to: input library; direction: higher = stronger binding
Target: Ras GTPase-activating protein-binding protein 1, RRM domain (G3BP1, Homo sapiens, UniProt Q13283)
Sequence of UniProt Q13283 (whole entry, looked up): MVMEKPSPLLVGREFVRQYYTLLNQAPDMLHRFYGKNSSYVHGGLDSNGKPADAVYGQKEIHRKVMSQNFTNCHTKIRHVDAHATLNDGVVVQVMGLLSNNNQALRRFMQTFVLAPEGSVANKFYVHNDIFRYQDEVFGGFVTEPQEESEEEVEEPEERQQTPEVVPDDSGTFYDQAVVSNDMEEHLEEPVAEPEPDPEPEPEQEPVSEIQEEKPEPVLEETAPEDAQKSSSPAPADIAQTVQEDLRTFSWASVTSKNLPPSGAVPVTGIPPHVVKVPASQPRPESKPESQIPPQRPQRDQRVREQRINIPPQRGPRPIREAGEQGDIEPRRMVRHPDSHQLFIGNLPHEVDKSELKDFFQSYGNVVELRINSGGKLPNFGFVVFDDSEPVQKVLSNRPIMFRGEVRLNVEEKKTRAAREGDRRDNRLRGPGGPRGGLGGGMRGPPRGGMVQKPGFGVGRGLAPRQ
Constant ends, left off below: GGGAGUUCUACAGUCCGACGAUC … UGGAAUUCUCGGGUGUCAAGG
`UCAAGUCCUGUGCUACACAUCGUAUGUACCGAAUCGGGAAGGGGAAGGGGAAGGGAAAGUAUUAUGUUACGCCGUUCGGAUCUGCACUUC` gave a log2 enrichment of 1.
For `CUCAAGUCCUGUGCUACACAUCGUAUGUACCGAAUCGGUUGGGUUGGGUUGGGAAAGUAUUAUGUUACGCCGUUCGGAUCUGCACUUCCA`, the log2 enrichment was 0.0942.
For `UUUUCAUACCGAUCUAGAGUUCGUCCUUGCGUGGUUUAUGGUGGUGCCGAUAUUGGUCAGCAGAUUCGAGACUUGGAACGUGGAUGCCAU`, the log2 enrichment was 0.00471.
`CAAGUCCUGUGCUACACAUCGUAUGUACCGAAUCGGAAAGGAAAGGAAAAAAAGGAAAGUAUUAUGUUACGCCGUUCGGAUCUGCACUUC` has a log2 enrichment of -0.0554.
For `CUCAAGUCCUGUGCUACACAUCGUAUGUACCGAAUCGGUGGAAAAAAAGGAGGAAAGUAUUAUGUUACGCCGUUCGGAUCUGCACUUCCA`, the log2 enrichment was -0.145.
`AGUCCUGUGCUACACAUCGUAUGUACCGAAUCAAACCCAAAUUUUUUUAAACCCAAAAAAGUAUUAUGUUACGCCGUUCGGAUCUGCACU` gave a log2 enrichment of -0.866.
For `ACCAUGCAGGUGGGCAUCUUUGGGAAGUGGGGCAAGGGGGGGAUGGGGAGGGGGGUAACACUUUGGGAACAGGUGGUCCCAGGUCGUUUC`, the log2 enrichment was 0.942.
The log2 enrichment of `CCUCAAGUCCUGUGCUACACAUCGUAUGUACCGAAUCGGGGAGGGAGGGGAGGAAAGUAUUAUGUUACGCCGUUCGGAUCUGCACUUCCA` is reported as 0.0738.

Study 2 — method: protein-binding microarray; form: double-stranded DNA, one strand shown; matrix: in vitro; concentration: 2200 nM top; notes: 60-bp whole probe; together with: salmon DNA 0.4 mg/ml; relative to: random background probes; direction: higher = stronger binding; constant ends, left off below: GCCTAGCAC … GTCTTGATTCGCTTGACGCTGCTG
Target: Interferon regulatory factor 7, full length, phosphomimetic (IRF7, Homo sapiens, UniProt Q92985, residues 1-503, S471D/S472D/S475D/S476D/S477D/S483D/S484D/S487D)
Residues (chain): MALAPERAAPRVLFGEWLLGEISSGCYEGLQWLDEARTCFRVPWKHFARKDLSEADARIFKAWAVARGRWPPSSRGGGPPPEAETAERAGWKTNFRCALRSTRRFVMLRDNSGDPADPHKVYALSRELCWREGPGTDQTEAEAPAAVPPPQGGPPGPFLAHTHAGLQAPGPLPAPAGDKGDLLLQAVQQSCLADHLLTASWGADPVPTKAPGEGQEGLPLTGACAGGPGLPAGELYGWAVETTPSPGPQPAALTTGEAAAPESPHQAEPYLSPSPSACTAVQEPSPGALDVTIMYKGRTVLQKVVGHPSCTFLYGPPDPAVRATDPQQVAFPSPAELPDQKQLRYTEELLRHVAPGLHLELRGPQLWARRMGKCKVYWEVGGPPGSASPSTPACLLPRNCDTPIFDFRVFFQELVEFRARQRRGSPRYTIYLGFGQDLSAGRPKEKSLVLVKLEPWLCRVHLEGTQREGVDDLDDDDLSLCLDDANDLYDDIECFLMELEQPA
Under “fitted relative affinity”, `GACGATTTCAGACTAGAGACGTGCTAG` is recorded as 0.16 z-score.
For `GACGAACTGGAGTTTCGAGACGTGCTA`, “fitted relative affinity” read 1.56 z-score.
`TTAGGACTGCCACTGCTTTAGTGCTAG` — result for “fitted relative affinity”: -0.196 z-score.
For `GACGGTCTCGATATCGGGACGTGCTAG`, “fitted relative affinity” read 0.5 z-score.
`GACGGTATCGGGAGTGGGGACGTGCTA`: “fitted relative affinity” -0.536 z-score.
`GACGGGATCCTTCTCCTGACGTGCTAG`: “fitted relative affinity” 0.17 z-score.
`GACGATTTCAGACTGGAGGCGTGCTAG` — result for “fitted relative affinity”: 0.306 z-score.

Other studies, line by line
For `PhoQ, residues 284 288 289 292 302 303 ASSHFY`, the fold induction was 15.2 and 28.4 (PhoP, residues 12 14 15 18 19 LWHSL (Escherichia coli, UniProt P23836); Sort-seq, item: YFP reporter; E. coli; PhoQ-PhoP variant library, together with: 10 µM Mg2+; relative to: high Mg2+ state, higher = stronger signaling).
`FBL (Homo sapiens, UniProt P22087)`: interaction screen “cross-linked” (UTP11 (Homo sapiens, UniProt Q9Y3A2); cross-linking MS; hits only).

Some of these lines once more (study 1):
`UCAAGUCCUGUGCUACACAUCGUAUGUACCGAAUCGGGAAGGGGAAGGGGAAGGGAAAGUAUUAUGUUACGCCGUUCGGAUCUGCACUUC` gave a log2 enrichment of 1.
For `CUCAAGUCCUGUGCUACACAUCGUAUGUACCGAAUCGGUUGGGUUGGGUUGGGAAAGUAUUAUGUUACGCCGUUCGGAUCUGCACUUCCA`, the log2 enrichment was 0.0942.
